# Measurements from different studies.
# Numbered parts are unrelated; each lists some results of a single study.

# Sample 1
# Target: Interferon regulatory factor 7, full length, phosphomimetic (IRF7, Homo sapiens, UniProt Q92985, residues 1-503, S101K/S471D/S472D/S475D/S476D/S477D/S483D/S484D/S487D)
# Technique: protein-binding microarray
# Form: double-stranded DNA, one strand shown
# Medium: in vitro
# Tested at: 250 nM
# Setting: 60-bp whole probe
# With: salmon DNA 0.4 mg/ml
# Relative to: random background probes
# Direction: higher = stronger binding
# Shared flanks, not repeated: GCCTAGCAC … GTCTTGATTCGCTTGACGCTGCTG
# Construct (chain): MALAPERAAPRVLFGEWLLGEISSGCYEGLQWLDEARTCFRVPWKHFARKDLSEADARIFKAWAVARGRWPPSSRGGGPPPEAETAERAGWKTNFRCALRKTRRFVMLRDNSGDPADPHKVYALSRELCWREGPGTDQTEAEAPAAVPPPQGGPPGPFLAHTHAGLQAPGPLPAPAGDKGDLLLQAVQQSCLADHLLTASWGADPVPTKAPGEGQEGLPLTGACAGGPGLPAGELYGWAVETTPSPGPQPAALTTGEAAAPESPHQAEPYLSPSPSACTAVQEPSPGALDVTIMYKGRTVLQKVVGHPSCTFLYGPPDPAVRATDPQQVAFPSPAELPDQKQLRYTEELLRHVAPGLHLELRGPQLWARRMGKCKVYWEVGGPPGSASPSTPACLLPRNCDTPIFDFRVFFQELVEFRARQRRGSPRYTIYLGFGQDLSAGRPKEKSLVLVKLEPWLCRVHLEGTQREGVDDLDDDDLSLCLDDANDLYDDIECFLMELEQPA
Oligonucleotide,log fluorescence [z-score]
GACGAACTGTGACTGGAGACGTGCTAG,-0.36
CCACATCTCTGTCCGTGCTCGTGCTAG,0.411
GGGATTTTTAGTTAGAAAAAGTGCTAG,-0.0935
TACGATATCAGTCTCGAGACGTGCTAG,0.735
TTAGGTATCGACTTTCAGTTAGTGCTA,1.57
GACGAACTGGGGTATCGACACGTGCTA,-0.717
GACGAACTGAGTATAGAGACGTGCTAG,-0.475
GACGTTATCAGACTGGAGACGTGCTAG,0.0574
TTACGTCTCCTTATCCTTTAGTGCTAG,0.611
CTGTTTTTCCCCTGCACTCAGTGCTAG,2.56
TCAGGACTCGGGTCTCCCACTGTGCTA,0.993

# Sample 2
# Target: RNA binding protein fox-1 homolog 2, RRM domain, GST-SBP tag (RBFOX2, Homo sapiens, UniProt O43251-10, residues 100-194)
# Technique: RNA Bind-n-Seq
# Form: RNA
# Medium: in vitro
# Tested at: 365 nM
# Setting: natural RNA segment, single round, ends assumed
# Relative to: no-protein control
# Direction: higher = stronger binding
# Target sequence (chain): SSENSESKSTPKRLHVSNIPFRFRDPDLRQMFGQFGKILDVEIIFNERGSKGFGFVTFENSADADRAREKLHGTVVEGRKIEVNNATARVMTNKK
Oligonucleotide,RBNS enrichment (R)
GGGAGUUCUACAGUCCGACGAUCCAACCCCUCACUGGUCUUGCAUGAGCUAGAGGGUUGGGAAGCUGGGCUCAUUCCACGCAUUGCCUGCAGCCAUCUGCACACUGCACCUGCUGGCAGCUCCUCCCCAGCAAUGGAAUUCUCGGGUGCCAA,17.6
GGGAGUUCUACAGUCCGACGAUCCUAUAGUCCCAGCUACUCGGAAGGCUGAAGCAGGAGAAUGGUAUGAAUCCAGGAGGUGGAGCUUGCAGUGAGCCGAGACCGUGCCACUGCACUCCAGCCUGGGCAACACAUGGAAUUCUCGGGUGCCAA,0.49
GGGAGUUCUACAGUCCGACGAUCAUGGGACCCUCUGGAGUCCAGCCAUCCCAGGCUGUCUGCUUUCCAGGGGUUGUAUCUUCCUUCUUACCUGUUCAUCAACCAGCCCUCUCAUUGCUGCUGCAAGUCUGGCUUGGAAUUCUCGGGUGCCAA,0.245
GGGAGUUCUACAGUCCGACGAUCGUUGUAGUGGGUUUUGGAGGAGGGAGUGGAGUAAGAUGCCCUCCCACUUUUAUCAGUUUAGUAGUAGUACUGAGAAAAAUCCCUUCAGCUCUAAGAACACUGAAAAAUCCUGGAAUUCUCGGGUGCCAA,0.324
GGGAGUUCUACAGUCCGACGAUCACUUCCCUUUUUGCACUUAGAUAACUUCCUACUUCAACCCCCUCCUUUAUCUUGGAUUUCUAAAGUUUUUCCCCAAUAUUGGGAAUGGUGAGGGUGGGGAUGAGAGACUCUGGAAUUCUCGGGUGCCAA,0.371
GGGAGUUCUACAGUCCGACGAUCGACCUUGUAUUUAUGAGGCCUCUGUGAGGCCAGCCCCCACCUUCCUCUUUCCCACCUGUCCCAGGACCAGAAUCCCAGGGACAGAGGACUGGGUAGCAGGUUCCUUCUGUUGGAAUUCUCGGGUGCCAA,0.294
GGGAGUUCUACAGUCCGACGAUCCCCCAACAUUAUAUACUCUGCUGCUUUUGUCUGGAAAACUCUACAGUGUUUGUGGGAUAUCCCCAAAGGAAAGCUGUGUUCUAAUUUUAUCAUUUCCAUCUGUCUGGUUAUGGAAUUCUCGGGUGCCAA,0.474
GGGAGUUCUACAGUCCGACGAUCAAGUGUAUUUAUACCAAGAUGGAGAUCUUGACUUCUUGAAUAUAUCUGGACUGGUAAAAUCUUGAUGAGGCUCAUAAAAUGAGUUUGGGAAUUGUGUAUAGCUGAUUUUUUGGAAUUCUCGGGUGCCAA,2.49
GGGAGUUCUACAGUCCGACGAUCCGGAUGCUGCUCUUUUCUUGCUUACCAACCAACUCCAUUUGCUUGUGAUGGCCCCAUUUUUACAGUUUUCCACAUGCUGGGGAGCCUAGGCCAAGCUGGUCACAAGUGGUUGGAAUUCUCGGGUGCCAA,0.645
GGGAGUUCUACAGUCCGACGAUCUACCAGAGCUCCUGCCUACCAAGACUGGAUGAAAGAAGCAGCUUUGAUGGGGUCUUUCCAUCCUCACCCUUAGACUCUCAACCAAAGAGAAAGGGCUGGAGGAUGCCCCCUGGAAUUCUCGGGUGCCAA,0.452
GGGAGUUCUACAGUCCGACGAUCUCUAUUUGAGUCUGGAAAUAACUAAUGUGUUUGAUAAUUAGUUUAGUUUGUGGCUUCAUGGAAACUCCCUGUAAACUAAAAGCUUCAGGGUUAUGUCUAUGUUCAUUCUAUGGAAUUCUCGGGUGCCAA,0.752
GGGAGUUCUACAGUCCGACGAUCAACUCCAUGUGUGUGUGUUAAGUGUUUGACUCCAAUUAAGACUCCCAAGCAAAUCCUGCAUAUUCCAAAUGUAAAGAGUACUCAGUGGGAAAAAGGUUGUUACCUCAAAGUGGAAUUCUCGGGUGCCAA,1.21

# Sample 3
# Target: RING finger protein unkempt homolog, zinc fingers 1-6, GST-SBP tag (UNK, Homo sapiens, UniProt Q9C0B0, residues 30-357)
# Technique: RNA Bind-n-Seq
# Form: RNA
# Medium: in vitro
# Tested at: not given
# Setting: RNA with constant flanks, ends assumed
# Relative to: input RNA pool
# Direction: higher = stronger binding
# Construct (chain): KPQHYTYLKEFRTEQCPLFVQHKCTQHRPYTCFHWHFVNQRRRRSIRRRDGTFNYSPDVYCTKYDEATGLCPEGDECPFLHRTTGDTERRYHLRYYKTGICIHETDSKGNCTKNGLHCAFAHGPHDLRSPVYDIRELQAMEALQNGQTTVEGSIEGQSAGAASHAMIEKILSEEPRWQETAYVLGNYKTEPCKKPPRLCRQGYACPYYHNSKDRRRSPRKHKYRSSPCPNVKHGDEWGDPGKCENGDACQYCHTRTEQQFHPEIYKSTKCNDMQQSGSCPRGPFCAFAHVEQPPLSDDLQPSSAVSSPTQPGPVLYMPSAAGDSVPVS
Oligonucleotide,bound/input enrichment [ratio]
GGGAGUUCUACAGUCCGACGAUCACUCAUGUACCCAUGUUACAGGUAUGGACUGCUGAUAAACCACAUCCACAAGAAGAGUAUUCCGAUUGCCUGUGGGCCCAGAUUCAGAAAUUGAAAAAGGAUCGCUGGCAGGAACGGCACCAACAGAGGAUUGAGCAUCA,0.134
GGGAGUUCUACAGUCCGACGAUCAACAAAGAUUAUCACAAGGAUGUUCGUAAUAACUUUUUGCCACCAAUUAUUGCACGUUUCAUCCGAGUGAACCCUGUCCAGUGGCAACAGAAAAUUGCCAUGAAAGUGGAACUGCUCGGACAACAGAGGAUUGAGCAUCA,0.0874
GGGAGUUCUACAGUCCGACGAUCAUCCCCAACGUGCUGCGCCGCACUCGCGAGCGCAUCCUGCGCGUGGCGCCGCCGUUUGCCGUGGUCUACCUGAUCUACACAUGGGGCAACCAGGAGUUUGAGCAGUCGAAAAGGAAGAAUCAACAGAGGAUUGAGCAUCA,0.111
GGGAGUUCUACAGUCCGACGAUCUUAGAAUGUUAUUUAGACCAAGUUUAGCUUUUAGAGUCCAGGUCUGGUUAAUUGCCAGGGCCGCAAAGAAUCGCAUGCACCAAUGUAAACAGGAGUCAGAAUGCAUUAUUAGUCAAAGAUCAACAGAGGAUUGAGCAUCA,1.79
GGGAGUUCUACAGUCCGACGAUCAUUCCAUAUUUAUUACGACUGAGACAAAUUAAGGAUGAAACUCUUCAGGCUGCAGUCCGAGAAAUUUUGGCCCUAAUUGGCUAUGUGGAUCCAGUGAAAGGGAGAGGAAUCCGAAUUCUCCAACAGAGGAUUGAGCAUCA,0.268
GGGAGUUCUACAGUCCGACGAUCAUGUGCAAGGAGAUUAUUCCAACUAGUGAAUUUAUUAACAGUAAAUUAACAGCAAAAGCAAACCGGCAGCUUCAAGACCCUCUAGUAAUCAUGACAGGAAACAUCCCAACAUGGCUCACUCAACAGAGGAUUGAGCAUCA,1.35
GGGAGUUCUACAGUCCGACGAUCGCUUAUAAAGCUGCUAGUGAUAUUGCAAUGACAGAACUUCCACCAACGCAUCCUAUUCGCUCCGGUCUUGCUCUCAAUUUUUCCGUAUUCUACUACGAAAUUCUUAAUUCCCCUGACCGUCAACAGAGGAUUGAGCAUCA,0.42
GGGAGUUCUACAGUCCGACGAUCAUGGCUUGGACGAUAUUAAGGACCGCUCGACGCUGGGAGAGAAACUGGGGGGCAGUGUUGCCGUUUCCCUUGAAGGAAAGCCACUAUAAAAUAAUAGCCAAGUGCCAUUUGAUCUUAAGGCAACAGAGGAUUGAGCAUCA,0.29
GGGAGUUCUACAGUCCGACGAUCGAGAUGAAGAAGAAGAUUAACAUGGAGUUGAAGAACAGAGCCCCGGAGGAGGUGACAGAGUCCGUCCUCGAUAAUUGCUUGUGUGUCAAUGGGGAAAUCGAAGGCCUGAAUGACACCUUUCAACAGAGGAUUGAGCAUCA,0.193

# Sample 4
# Substance: PhoQ, residues 284 288 289 292 302 303 SSYNSA
# Technique: Sort-seq
# Refers to: YFP reporter
# Medium: E. coli
# Setting: PhoQ-PhoP variant library
# With: 10 µM Mg2+
# Relative to: high Mg2+ state
# Direction: higher = stronger signaling
target,fold induction
"PhoP, residues 12 14 15 18 19 VHTVL (Escherichia coli, UniProt P23836)",15.8
"PhoP, residues 12 14 15 18 19 ICWRQ (Escherichia coli, UniProt P23836)",1.48
"PhoP, residues 12 14 15 18 19 TQCLL (Escherichia coli, UniProt P23836)",1.83
